Measurements from different studies.
Lines come from different studies, so protocols differ. ± gives the spread as reported.

| Compound | test | test system | conditions | scale | Cmax |
| --- | --- | --- | --- | --- | --- |
| CN1CC[C@@H](NC(=O)Nc2ccc(C#N)cc2)C[C@@H]1c1nc2ccccc2[nH]1 |  | human | oral, 100 mg, cycle 1 day 21, given alone |  | 1060 ng/mL |
| NS(=O)(=O)OC[C@@H]1C[C@@H](n2ccc3c(N[C@H]4CCc5ccccc54)ncnc32)C[C@@H]1O | LC-MS/MS, non-compartmental | human, plasma | intravenous, all dose levels, cycle 1 day 1, median |  | 273 ng/mL |
| CO[C@H]1C[C@@H]2CC[C@@H](C)[C@@](O)(O2)C(=O)C(=O)N2CCCC[C@H]2C(=O)O[C@H]([C@H](C)C[C@@H]2CC[C@@H](OC(=O)NCCOCCOCCOCCOCCOCCOCCOCCOCCC(=O)N3CCc4cc(Cn5nc(-c6ccc7oc(N)nc7c6)c6c(N)ncnc65)ccc4C3)[C@H](OC)C2)C[C@@H](O)[C@H](C)/C=C(\C)[C@@H](O)[C@@H](OC)C(=O)[C@H](C)C[C@H](C)/C=C/C=C/C=C/1C |  | human patients, plasma | intravenous, 10 mg, cycle 1 day 15, 2 h infusion |  | 322 ng/mL |
| COc1cc(Nc2c(C#N)cnc3cc(OCCCN4CCN(C)CC4)c(OC)cc23)c(Cl)cc1Cl | measured: total drug | human, moderate hepatic impairment, plasma | single dose, NCI classification |  | 62.7 ng/mL |
| CC(C)(C#N)c1cc(Cn2cncn2)cc(C(C)(C)C#N)c1 |  | human | 150 mg |  | 14.4 ng/mL |
| COc1nnc2ccc(N3CCC(c4ccc(OCCN5CCN(C)C(=O)[C@H]5C)cc4)CC3)nn12 |  | human, plasma | oral, 10 mg once daily, multiple dose, monotherapy |  | 87.9 nM |
| CNC(=O)c1ccccc1Sc1ccc2c(/C=C/c3ccccn3)n[nH]c2c1 |  | human, mild hepatic impairment (NCI), plasma | single dose, geometric mean, total drug |  | 36.5 ng/mL |
| CCNCc1cc(Nc2ccnc3cc(Cl)ccc23)ccc1O |  | human, both sexes, plasma | oral, dose not given, non-fixed combination |  | 875 ng/mL |
| CNC(=O)n1ccc2cc(Oc3ccnc(NC(=O)c4ccc(C5CCN(CCO)CC5)cc4)c3)c(OCCOC)cc21 |  | healthy human | dose not given, added: rabeprazole | baseline: compound alone | no effect |
| COc1ccc2nc([S@@+]([O-])Cc3ncc(C)c(OC)c3C)[nH]c2c1 |  | human male, dried plasma spots | oral, 5 mg racemic omeprazole, added: rifampicin pretreatment |  | 10.8 nM |
| Cn1c(=O)oc2ccc(-c3ccc(C[C@@H](C#N)NC(=O)[C@@H]4CNCCCO4)cc3)cc21 |  | human, moderate renal impairment, plasma | oral, 25 mg single dose, mean |  | 187 ng/mL |
| CN(C)N=Nc1[nH]cnc1C(N)=O |  | human patients, plasma | intravenous, 1000 mg/m^2 over 1 h, cycle 2 day 1, staggered with twice-weekly co-drug |  | 32900 ng/mL |
| Cc1ccc(C(=O)N(CCCN)C(c2nc3snc(C)c3c(=O)n2Cc2ccccc2)C(C)C)cc1 (stereo not drawn) |  | human patients, plasma | intravenous, 13 mg/day, day 3 of induction course, geometric mean |  | 114 ng/mL |
| COc1ccc([C@@H](O)c2cc(-c3ncnc4cc(N5CCOCC5)ccc34)c(F)cc2Cl)nn1 |  | healthy human volunteers, plasma | oral, 100 mg single dose, tablet, fed high-fat, geometric mean |  | 279 ng/mL |
| O=C(O)CCC(=O)O.[2H]C([2H])([2H])Oc1cc(C)c2[nH]ccc2c1CN1CC[C@@H](C2CC2)C[C@H]1c1ccc(C(=O)O)cc1 |  | healthy humans, fasted, plasma | oral, 200 mg, single dose |  | 3140 ng/mL |
| Cc1cc(Nc2cc3ncccc3c(N[C@@H]3C[C@H]4CC[C@@H](C3)N4CCC#N)n2)n[nH]1 |  | human, plasma | 270 mg, day 1, geometric mean |  | 14.4 ng/mL |
| N#C[C@H](C[C@@H]1CCCNC1=O)NC(=O)[C@H](CC1CC1)NC(=O)c1cc2cccc(Cl)c2[nH]1 |  | human | 150 mg once daily, day 1 |  | 1090 ng/mL |
| CC(=O)O.NC(=O)c1cnc(N[C@@H]2CCCC[C@@H]2N)nc1Nc1cccc(-n2nccn2)c1 |  | human, plasma | oral, 110 mg once daily |  | 223 ng/mL |
| CCN1CCN(Cc2ccc(Nc3ncc(F)c(-c4cc(F)c5nc(C)n(C(C)C)c5c4)n3)nc2)CC1 |  | healthy human, fasted | oral, 150 mg, 3 x 50 mg tablets |  | 97.7 ng/mL |
| COc1ccc(F)cc1C(=O)NCc1ccc(-c2nn([C@@H](C)C(F)(F)F)c(N)c2C(N)=O)cc1 |  | human, fasted, plasma | oral, 200 mg single dose, formal food-effect study |  | 4200 ng/mL |
| N#Cc1cc(NC(=O)[C@H]2c3ccccc3C(=O)N(CC(F)(F)F)[C@@H]2c2cccnc2)ccc1F |  | human, plasma | oral, 600 mg, median |  | 1470 ng/mL |
| C[C@H]1CN(C2COC2)CCN1c1ccc(Nc2cc(-c3ccnc(N4CCn5c(cc6c5CC(C)(C)C6)C4=O)c3CO)cn(C)c2=O)nc1 |  | human, plasma | oral, 200 mg twice daily |  | 1200 nM |
| C=CC(=O)N1CCC(Oc2cc3c(Nc4ccc(Cl)c(Cl)c4F)ncnc3cc2OC)CC1 |  | human, fed, plasma | oral, 16 mg, geometric mean |  | 59.9 ng/mL |
| CC1(COc2ccc3c(c2)ncn3-c2ccc3cccc(N4CCC(N)CC4)c3n2)COC1 |  | human patients, recurrent/progressive HGG or DIPG, serum | oral, 100 mg/m^2, day 1, median |  | 431 nM |

| Compound | test | test system | conditions | scale | Cmax |
| --- | --- | --- | --- | --- | --- |
| C=CC(=O)NC1CCN(c2ncc3ncnc(Nc4ccc(Oc5ccc6c(c5)ncn6C)c(C)c4)c3n2)CC1 |  | human, male, plasma | oral, 240 mg, fed, adjusted geometric mean |  | 4670 nM |
| Cn1ncnc1[C@H]1c2n[nH]c(=O)c3cc(F)cc(c23)N[C@@H]1c1ccc(F)cc1 |  | human patients, plasma | oral, 600 µg/m2 twice daily, day 1, monotherapy, dose level DL3, median |  | 3.8 ng/mL |
| C[C@H](CCC(=O)NCC(=O)O)[C@H]1CC[C@H]2[C@@H]3[C@H](O)C[C@@H]4C[C@H](O[C@@H]5O[C@H](C(=O)O)[C@@H](O)[C@H](O)[C@H]5O)CC[C@]4(C)[C@H]3CC[C@]12C |  | human, plasma | concentration not given, endogenous baseline diurnal |  | 79 ± 19.1 nM |
| Nc1ccc(-c2nc([C@H]3CCc4cc(-c5cc(Cl)ccc5-n5cnnn5)cc(=O)n43)c(F)[nH]2)c(F)n1 |  | human, plasma | oral, 250 mg once daily, day 1 |  | 1770 ng/mL |
| C[C@]12C=CC(=O)C=C1CC[C@@H]1[C@@H]2[C@@H](O)C[C@@]2(C)[C@H]1CC[C@]2(O)C(=O)CO |  | human | oral, dose not given |  | 341 ng/mL |
| CC(C)NC(=O)COc1cccc(-c2nc(Nc3ccc4[nH]ncc4c3)c3ccccc3n2)c1 |  | human, male, fed, plasma | oral, 200 mg once daily, day 8, geometric mean, added: raltegravir |  | 2760 ng/mL |
| C[C@H](Oc1ccc(Br)cc1-c1ccon1)C(=O)O | LC-MS/MS, non-compartmental | human, plasma | 200 mg once daily, day 10, multiple ascending dose, mean |  | 8920 ng/mL |
| O=C(Nc1cnccc1Cl)N1CCN(Cc2ccc3c(c2)OC(F)(F)O3)CC1 |  | human healthy young women, plasma | oral, 100 mg once daily, day 10, multiple dose mean |  | 949 ng/mL |
| O=C(O)CCCCCCCCCCCCCCC(=O)O |  | human, plasma | concentration not given, endogenous baseline diurnal |  | 269 ± 42 nM |
| CC1=C(c2cccc(O)c2)[C@H](c2ccc(OCCN3CC(CF)C3)cc2)Oc2ccc(O)cc21 |  | human, plasma | oral, 1000 mg single dose, geometric mean |  | 129 ng/mL |
| CC(=O)N(C)[C@H]1CCN(C(=O)c2cnc3c(c2)C[C@](C)(c2ccc(F)cc2)N3)C1 |  | healthy male human, plasma | oral, 30 mg once daily, geometric mean |  | 709 nM |
| [H]/N=C(/N)c1ccc(NCc2nc3cc(C(=O)N(CCC(=O)O)c4ccccn4)ccc3n2C)cc1 |  | healthy humans, plasma | oral, 75 mg, alone, geometric mean |  | 49.8 ng/mL |
| CCc1cc2c(cc1N1CCC(N3CCOCC3)CC1)C(C)(C)c1[nH]c3cc(C#N)ccc3c1C2=O | LC-MS | human, plasma | oral, 600 mg twice daily, cycle 1 day 15 |  | 1210 ng/mL |
| Cc1noc(C)c1-c1cc(C(O)(c2ccccn2)c2ccccn2)c2nc(C3CC3)[nH]c2c1 |  | human patients, plasma | oral, 2 mg, cycle 1 day 8, monotherapy |  | 174 ng/mL |
| CO[C@H]1C[C@@H]2CC[C@@H](C)[C@@](O)(O2)C(=O)C(=O)N2CCCC[C@H]2C(=O)O[C@H]([C@H](C)C[C@@H]2CC[C@@H](OCCO)[C@H](OC)C2)CC(=O)[C@H](C)/C=C(\C)[C@@H](O)[C@@H](OC)C(=O)[C@H](C)C[C@H](C)/C=C/C=C/C=C/1C |  | human, plasma | oral, 5 mg, cycle 1 day 1, single dosing, added: vorolanib 150 mg |  | 52.6 ± 12.1 ng/mL |
| C[C@@H](N)c1cc(Cl)ccc1Cn1c(=S)[nH]c(=O)c2[nH]ccc21 |  | human, both sexes, severe renal impairment, plasma | oral, 2.5 mg single dose, geometric mean |  | 7.77 nM |
| CN(C)C(=O)c1cc2cnc(Nc3ccc(N4CCNCC4)cn3)nc2n1C1CCCC1 |  | human, expansion cohort, plasma | oral, 800 mg, day 14, added: gemcitabine 1000 mg/m^2 |  | 3340 ± 1780 ng/mL |
| C=CC(=O)N(C)CCOc1c(N)ncnc1-c1cc(F)cc(NC(=O)c2ccc(C3CC3)cc2F)c1C |  | human, whole blood | oral, 30 mg, single ascending dose, fasted |  | 64.8 ng/mL |
| O=C(COc1ccc(Cl)cc1)NC12CC(c3nnc([C@H]4C[C@@H](OC(F)(F)F)C4)o3)(C1)C2 |  | healthy human volunteers fasted, plasma | oral, 45 mg single dose, arithmetic mean |  | 535 nM |
| Cc1cn(C(=O)c2c(-c3c(Cl)cc(Cl)cc3Cl)noc2C(C)(C)F)c2cccc(/C=C/C(=O)O)c12 |  | human patients | 125 mg bid, cycle 1 day 1 |  | 5620 ng/mL |
| COc1cc(-c2cnc3cc(OCCN4CCOCC4)ccn23)cc2c1C(=O)N(CC(F)(F)F)CC2 | LC-MS | human, plasma | oral, 350 mg, day 5, added: sulfasalazine 1000 mg |  | 1130 ng/mL |
| CC(C)(C(=O)N1CCOc2c(C#N)cncc2C1)C(F)F |  | humans, both sexes, plasma | oral, 10 mg once daily, day 14, geometric mean |  | 158 ng/mL |
| NC1(C(=O)N[C@@H](CCO)c2ccc(Cl)cc2)CCN(c2nc[nH]c3nccc2-3)CC1 |  | human patients, plasma | dose not given, cohort 160/480, cycle 0, geometric mean |  | 1060 ng/mL |
| N#CCNC(=O)c1ccc(-c2ccnc(Nc3ccc(N4CCOCC4=O)cc3)n2)cc1 |  | healthy human volunteers, plasma | 200 mg momelotinib, day 1, fasted, momelotinib alone |  | 588 ng/mL |
